Measurements of several laboratories.
A part holds a random share of what one study measured. Positions count from the first letter of the parent shown.

Block 1 — technique: RNA Bind-n-Seq; form: RNA; matrix: in vitro; tested at: 365 nM; relative to: no-protein control; direction: higher = stronger binding
Target: RNA binding protein fox-1 homolog 2, RRM domain, GST-SBP tag (RBFOX2, Homo sapiens, UniProt O43251-10, residues 100-194)
Setting: natural RNA segment, single round, ends assumed
Construct (chain): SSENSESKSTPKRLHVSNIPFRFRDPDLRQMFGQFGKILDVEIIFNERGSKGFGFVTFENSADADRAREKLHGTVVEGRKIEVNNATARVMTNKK
Oligonucleotide	RBNS enrichment (R)
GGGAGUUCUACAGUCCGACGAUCUACUGUAUUGUUUGCUUUCCUUAAGUGCAGUCAUCUCUGAUAGCUUGAGUGAUGGUGUUUCAAAUCCUGUAGUCCUAUGGUGGCUUUCCUUGCCUGUUACUUUAGAGAUCUGGAAUUCUCGGGUGCCAA	0.509
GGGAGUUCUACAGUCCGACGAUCAAAAAUUCAUAUCCAGUGAAGAUCAACUUCAAGCUUUAGAGAACAUCUAAUAUCUCAUGCAUGCAGUUUUGUUGUAUCAAUUAAAAGGGUUUUGUAUAUUUAUGGUGGGAUGGAAUUCUCGGGUGCCAA	24
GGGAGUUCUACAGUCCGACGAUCGUGUCCAUCAUCAGGGGAAGAUCAAACACAGGUGCACUCAGCUGCCCAGGGCCUCUGGGACACUUGCCUUGACUUGCAACUUGCCUUGAACAUCACGAUCAAAGCAGCAGUGGAAUUCUCGGGUGCCAA	0.235
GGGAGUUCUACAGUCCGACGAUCUCACCUGCUAGUACAAUCUCCACAACUUGAAUGGCAUUGGUUGUUCUGUAAUUCCUGCCAAAAGCAUCACAAGUUGUACAUCAUCAAGGCUCCCUUUGCACUCCCAAGAAUGGAAUUCUCGGGUGCCAA	1.59
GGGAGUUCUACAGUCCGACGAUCCUCUAGACACCACCCAUGCUGCCCCAGGUCUUACACAGUGCGUGGAACAAAGCAGAGACAUUUAUUCACCUUGACUCCCCAGGGAAGCCUUCCACACUAGAUGGUCCAAUUGGAAUUCUCGGGUGCCAA	0.486
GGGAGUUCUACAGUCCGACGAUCAAGGAUCUAACUGCUUUACAAAUAUUAAACAAGUGCUUGGGCAUGAUUGGGAGAGGAGGCAGCUUAGCUGGAAGCUGUGCCCAUCUUACUGUCACUGGAGAAUAGGAUGUUGGAAUUCUCGGGUGCCAA	3.33
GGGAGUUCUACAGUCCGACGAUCUGAAUGAAAGUCAUUGGUAUUUGGCUUUGUGGUUACAGUACUAAUUUUACUUUGCUGCUCAGUUUUGAAAGUGUGUGAGCUACAUAGGUCUCCCUGUAGGAAAUGUGAAAUGGAAUUCUCGGGUGCCAA	1.39
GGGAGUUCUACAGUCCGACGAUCUAUCCUUCACCACCCCCAGUCCCAGCACCUGUGUCAGUAAAGAAAGUGGACACAUUAGUAAUGGUUAUGGGAGUAAUACAGAGAAAGAGGUGAGUGGAGACUCAGCCCAGUGGAAUUCUCGGGUGCCAA	0.567
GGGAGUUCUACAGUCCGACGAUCAAUUUCAAAGUAUAAAUAUAUUUAUUAAGUAGCGCUGCGGCUAAGAAGGAAGAGUGAGGGGUCUGUCCAUGGGGUGGCAGUGAUUUCACACCCGCCUUUCUUGAAUGGCUUGGAAUUCUCGGGUGCCAA	0.706
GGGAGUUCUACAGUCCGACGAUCGGAUUGCCUUGGUUGACUUUUAAUUUAUUGUUUUUUGUUCUUAUAAAGAUGAUAAUCUUACCUUGCAGUUAUUGACUUUAUAUUCAAUUAUUUACAUCAAAUAAUGAAAUUGGAAUUCUCGGGUGCCAA	2.11
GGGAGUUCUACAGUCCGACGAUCAAACCUAAGUUAAACUUUUUCCCAAACAAGGAGCAUCCAAAGACACAGUGACUUGAGCUAUAGAUAGUAAAAAUCAUACGAGAGUUGAACUGAGUCAGGUUUAGGAAGCAUGGAAUUCUCGGGUGCCAA	1.48
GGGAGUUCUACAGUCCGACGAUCCUUCUUUUCUUUCAAAGACUUAUUUAUUUUAUGUAUACGAGUACACUGUAGCUGUCUUCAGACACACUAGAAGAGGGCAUCAGAUUCCAUUACAGAUGGUUGUGAGCCGCUGGAAUUCUCGGGUGCCAA	0.298

Block 2 — target: CCNE2, cyclin fold, Cln2 fusion (human); technique: yeast growth competition, sequencing; matrix: yeast; setting: strong parent motif; relative to: not given; direction: higher = stronger binding
Parent: SCAPER docking peptide (human); SNARRSLNFGGST; partner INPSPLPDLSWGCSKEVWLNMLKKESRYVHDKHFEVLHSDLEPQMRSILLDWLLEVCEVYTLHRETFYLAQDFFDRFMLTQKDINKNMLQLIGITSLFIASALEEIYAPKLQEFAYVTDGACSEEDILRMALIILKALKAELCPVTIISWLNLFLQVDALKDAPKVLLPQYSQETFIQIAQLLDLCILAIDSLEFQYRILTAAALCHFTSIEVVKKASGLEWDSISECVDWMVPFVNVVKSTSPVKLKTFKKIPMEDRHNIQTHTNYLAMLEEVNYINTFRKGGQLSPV
Change	normalised enrichment score
SNARQSLNFGGST [R5Q]	0.187
SNARLSLNFGGST [R5L]	0.0278
SNARRSLNFGGTT [S12T]	0.93
SNARKSLNFGGST [R5K]	0.0537
SYARRSLNFGGST [N2Y]	0.905
GNARRSLNFGGST [S1G]	1.42
SDARRSLNFGGST [N2D]	0.248
SNARRSENFGGST [L7E]	-0.28
SVARRSLNFGGST [N2V]	0.98
SNARRSLDFGGST [N8D]	1.16
SNARRSLNFGGLT [S12L]	1.83
SIARRSLNFGGST [N2I]	0.338
SNARRSLNFGKST [G11K]	1.46
SNARASANFGGST [R5A L7A]	-0.0687
SNARRSLNFGGSS [T13S]	1.19
SNARRSLNFGGSA [T13A]	0.815

Block 3 — technique: RNA Bind-n-Seq; form: RNA; matrix: in vitro; tested at: 20 nM; setting: 6-mer, flanks averaged, single round; with: 150 mM LiCl; relative to: input library; direction: higher = stronger binding
Target: TAR DNA-binding protein 43, full length, His tag (TARDBP, Homo sapiens, UniProt Q13148, residues 1-414)
Oligonucleotide	6-mer enrichment (R)
UAGCGG	1
GGAAGA	0.985
GUGCUG	1.14
CCGAAG	0.855
AGCAGU	0.935
ACGAAC	0.813
CCCGAG	1.11
GGAUCA	0.899
GGAAUC	0.856
ACCAGA	0.82
CCGUGU	1.08
GUCGCA	0.927
AAUUUU	1.22
GCUGAU	0.927

Block 4 — target: CRIPT, C-terminal peptide; technique: DHFR complementation, deep sequencing; matrix: yeast; relative to: wild type; direction: higher = weaker binding
Setting: single substitutions, model-inferred values
Parent: ERBIN, PDZ domain 1 (human); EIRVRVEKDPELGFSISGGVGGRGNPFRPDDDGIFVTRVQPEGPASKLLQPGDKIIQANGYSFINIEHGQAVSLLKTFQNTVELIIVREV; partner TKNYKQTSV
Change	binding free energy change
R88E	1.12 kcal/mol
A71S	0.263 kcal/mol
D31E	0.216 kcal/mol
G52I	0.62 kcal/mol
S15N	0.967 kcal/mol
V87C	0.0694 kcal/mol
V39D	1.03 kcal/mol
N25F	0.98 kcal/mol
N25T	0.732 kcal/mol
Q40S	0.25 kcal/mol
L84C	0.289 kcal/mol
E11I	-0.452 kcal/mol
I86P	1.26 kcal/mol
T81Q	-0.0272 kcal/mol
P10T	-0.687 kcal/mol
V82L	1.6 kcal/mol
K47F	0.19 kcal/mol
G18V	0.716 kcal/mol
A58D	0.317 kcal/mol

Block 5 — technique: universal PBM; form: double-stranded DNA, one strand shown; matrix: in vitro; tested at: 600 nM; direction: higher = stronger binding
Target: Sal-like protein 4, full length isoform A (SALL4, Homo sapiens, UniProt Q9UJQ4, residues 1-1053)
Sequence of UniProt Q9UJQ4 (whole entry, looked up): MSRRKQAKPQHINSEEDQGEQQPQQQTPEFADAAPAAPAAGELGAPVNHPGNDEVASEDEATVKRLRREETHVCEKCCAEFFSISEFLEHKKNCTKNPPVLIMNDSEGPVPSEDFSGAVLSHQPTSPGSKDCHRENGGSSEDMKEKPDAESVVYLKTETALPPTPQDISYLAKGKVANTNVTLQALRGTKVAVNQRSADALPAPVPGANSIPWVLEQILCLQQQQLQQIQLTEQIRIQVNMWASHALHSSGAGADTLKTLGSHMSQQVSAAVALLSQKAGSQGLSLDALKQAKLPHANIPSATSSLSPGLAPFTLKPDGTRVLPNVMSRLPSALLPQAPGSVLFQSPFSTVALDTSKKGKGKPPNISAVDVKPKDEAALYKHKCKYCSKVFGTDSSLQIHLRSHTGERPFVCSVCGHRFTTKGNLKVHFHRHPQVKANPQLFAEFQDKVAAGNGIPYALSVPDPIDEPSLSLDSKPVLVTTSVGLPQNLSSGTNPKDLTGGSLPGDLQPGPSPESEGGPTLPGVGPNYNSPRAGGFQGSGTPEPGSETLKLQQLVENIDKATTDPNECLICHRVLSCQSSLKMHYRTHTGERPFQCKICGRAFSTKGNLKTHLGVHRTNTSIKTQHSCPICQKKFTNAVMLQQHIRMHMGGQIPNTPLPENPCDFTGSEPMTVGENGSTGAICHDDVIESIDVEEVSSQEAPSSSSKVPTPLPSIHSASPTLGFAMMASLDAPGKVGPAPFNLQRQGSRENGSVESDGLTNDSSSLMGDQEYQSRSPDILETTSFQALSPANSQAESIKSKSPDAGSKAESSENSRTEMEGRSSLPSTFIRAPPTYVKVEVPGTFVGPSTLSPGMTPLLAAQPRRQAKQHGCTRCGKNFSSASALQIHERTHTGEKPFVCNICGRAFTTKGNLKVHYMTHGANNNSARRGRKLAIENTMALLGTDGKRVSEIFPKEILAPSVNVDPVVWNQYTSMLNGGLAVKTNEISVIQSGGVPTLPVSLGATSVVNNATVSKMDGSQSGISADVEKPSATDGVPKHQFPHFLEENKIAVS
Setting: 8-mer, flanks averaged, mean of replicates
Oligonucleotide	E-score
AAAACTCG	0.149
GTGTTCGA	-0.0895
CCGTGGAA	-0.0247
CCCCGAAG	-0.166
GGGTGCAA	-0.168
CTTAAACA	0.0669
AAGGCCCT	-0.139
TAGCGTGA	0.0712
GGGATCCA	-0.172
GGTGGGTA	-0.0771
AGTAACGA	0.108
AGTTTGGG	0.00171
AGGACAGC	-0.278
CTATTTCA	0.208
CGAAACAG	-0.0886
AGGCTTTG	-0.224
CTAGTGCA	0.127

Further values, each from its own experiment
Substance	target	assay	test system	setting	how to read	quantity	result
PhoQ, residues 284 288 289 292 302 303 TAVSDG	PhoP, residues 12 14 15 18 19 IQFRS (Escherichia coli, UniProt P23836)	Sort-seq, measured: YFP reporter	E. coli	PhoQ-PhoP variant library, with: 10 µM Mg2+	relative to: high Mg2+ state, higher = stronger signaling	fold induction	21.9

Excerpt of the above (block 2):
Change	normalised enrichment score
SYARRSLNFGGST [N2Y]	0.905
SNARRSENFGGST [L7E]	-0.28
SNARRSLDFGGST [N8D]	1.16
SNARRSLNFGGLT [S12L]	1.83
SDARRSLNFGGST [N2D]	0.248
SNARASANFGGST [R5A L7A]	-0.0687
SVARRSLNFGGST [N2V]	0.98
SNARQSLNFGGST [R5Q]	0.187
GNARRSLNFGGST [S1G]	1.42
SNARRSLNFGGSS [T13S]	1.19
SNARRSLNFGGTT [S12T]	0.93
